Published values pooled from the literature.
Each line is one published result; not all experiments were run side by side.
Organism: Klebsiella pneumoniae

CN[C@H](CC(C)C)C(=O)N[C@H]1C(=O)N[C@@H](CC(N)=O)C(=O)N[C@H]2C(=O)N[C@H]3C(=O)N[C@H](C(=O)N[C@H](C(=O)O)c4cc(O)cc(O)c4-c4cc3ccc4O)[C@H](O)c3ccc(c(Cl)c3)Oc3cc2cc(c3O[C@@H]2O[C@H](CO)[C@@H](O)[C@H](O)[C@H]2O[C@H]2C[C@](C)(NCc3ccc(OCc4cn(CCCCC(=O)N[C@H](C(=O)N[C@@H](CCN)C(=O)N[C@H]5CCNC(=O)[C@H]([C@@H](C)O)NC(=O)[C@H](CCN)NC(=O)[C@H](CCN)NC(=O)[C@H](CC(C)C)NC(=O)[C@@H](CC(C)C)NC(=O)[C@H](CCN)NC5=O)[C@@H](C)O)nn4)c(OC)c3)[C@H](O)[C@H](C)O2)Oc2ccc(cc2Cl)[C@H]1O
MIC (broth microdilution; ATCC 13883, cation-adjusted Mueller-Hinton broth; 18 to 20 h, 37 °C, 0.002% polysorbate 80): 8 µg/mL

CC1(C)[C@H](NC(=O)/C(=N\OCc2c(Cl)cccc2Cl)c2csc(N)n2)C(=O)N1OS(=O)(=O)O
MIC (agar dilution; 16-14, ESBL-producing): 8 µg/mL

CN[C@H](CC(C)C)C(=O)N[C@H]1C(=O)N[C@@H](CC(N)=O)C(=O)N[C@H]2C(=O)N[C@H]3C(=O)N[C@H](C(=O)N[C@H](C(=O)NCc4cn(CC(=O)N[C@H](C(=O)N[C@@H](CCN)C(=O)N[C@H]5CCNC(=O)[C@H]([C@@H](C)O)NC(=O)[C@H](CCN)NC(=O)[C@H](CCN)NC(=O)[C@H](CC(C)C)NC(=O)[C@@H](CC(C)C)NC(=O)[C@H](CCN)NC5=O)[C@@H](C)O)nn4)c4cc(O)cc(O)c4-c4cc3ccc4O)[C@H](O)c3ccc(c(Cl)c3)Oc3cc2cc(c3O[C@@H]2O[C@H](CO)[C@@H](O)[C@H](O)[C@H]2O[C@H]2C[C@](C)(N)[C@H](O)[C@H](C)O2)Oc2ccc(cc2Cl)[C@H]1O
MIC (broth microdilution; ATCC 13883, cation-adjusted Mueller-Hinton broth; 18 to 20 h, 37 °C, 0.002% polysorbate 80): 32 µg/mL

C#CCNC(=O)C1(O/N=C(\C(=O)N[C@@H]2C(=O)N(OS(=O)(=O)O)C2(C)C)c2csc(N)n2)CC1
MIC (agar dilution; ATCC 700603 ESBL): 16 µg/mL

CC[C@H]1OC(=O)[C@H](C)[C@@H](OC(=O)Cc2c(F)cccc2F)[C@H](C)[C@@H](O[C@@H]2O[C@H](C)C[C@H](N(C)C)[C@H]2O)[C@](C)(OC)C[C@@H](C)C(=O)[C@H](C)[C@@H](O)[C@]1(C)O
MIC (microbial growth; ATCC700603): > 32 µg/mL

CN[C@H](CC(C)C)C(=O)N[C@H]1C(=O)N[C@@H](CC(N)=O)C(=O)N[C@H]2C(=O)N[C@H]3C(=O)N[C@H](C(=O)N[C@H](C(=O)NCc4cn(CCCCC(=O)N[C@H](C(=O)N[C@@H](CCN)C(=O)N[C@H]5CCNC(=O)[C@H]([C@@H](C)O)NC(=O)[C@H](CCN)NC(=O)[C@H](CCN)NC(=O)[C@H](CC(C)C)NC(=O)[C@@H](CC(C)C)NC(=O)[C@H](CCN)NC5=O)[C@@H](C)O)nn4)c4cc(O)cc(O)c4-c4cc3ccc4O)[C@H](O)c3ccc(c(Cl)c3)Oc3cc2cc(c3O[C@@H]2O[C@H](CO)[C@@H](O)[C@H](O)[C@H]2O[C@H]2C[C@](C)(N)[C@H](O)[C@H](C)O2)Oc2ccc(cc2Cl)[C@H]1O
MIC (broth microdilution; ATCC 27736, cation-adjusted Mueller-Hinton broth; 18 to 20 h, 37 °C, 0.002% polysorbate 80): 16 µg/mL

CC1(C)[C@H](NC(=O)/C(=N\OCC(=O)N2CCC(C(=O)O)C2)c2nsc(N)n2)C(=O)N1OS(=O)(=O)O (stereo partly drawn)
MIC (agar dilution; ATCC 700603, ESBL-producing): > 64 µg/mL

CC[C@H]1OC(=O)[C@H](C)[C@@H](OC(=O)Cc2ccc([N+](=O)[O-])cc2)[C@H](C)[C@@H](O[C@@H]2O[C@H](C)C[C@H](N(C)C)[C@H]2O)[C@](C)(OC)C[C@@H](C)C(=O)[C@H](C)[C@@H](O)[C@]1(C)O
MIC (microbial growth; ATCC700603): > 32 µg/mL

CCCCCCCC(=O)N[C@@H](CCN)C(=O)N[C@H](C(=O)N[C@@H](CCN)C(=O)N[C@H]1CCNC(=O)[C@H]([C@@H](C)O)NC(=O)[C@H](CCN)NC(=O)[C@H](CCN)NC(=O)[C@H](CC(C)C)NC(=O)[C@@H](Cc2ccccc2)NC(=O)[C@H](CCN)NC1=O)[C@@H](C)O
MIC (broth microdilution; ATCC 13883, colistin-susceptible): 0.5 to 1 µg/mL

CC1(C)C(NC(=O)C(=NOC2(C(=O)O)CCC2)c2csc(N)n2)C(=O)N1OS(=O)(=O)O (stereo not drawn)
MIC (agar dilution; ATCC 700603, ESBL-producing): 1 µg/mL

CCCCCCCC[C@@H]1NC(=O)[C@@H](Cc2ccccc2)NC(=O)[C@H](CCN)NC(=O)[C@@H](NC(=O)[C@H](CCN)NC(=O)[C@@H](NC(=O)[C@H](CCN)NC(=O)CCCCCCC)[C@@H](C)O)CCNC(=O)[C@H]([C@@H](C)O)NC(=O)[C@H](CCN)NC(=O)[C@H](CCN)NC1=O
MIC (broth microdilution; ATCC 19606): < 0.125 µg/mL

CC1(C)C(NC(=O)C(=NOCC(=O)N2CC3CCCC3C2C(=O)O)c2csc(N)n2)C(=O)N1OS(=O)(=O)O (stereo not drawn)
MIC (agar dilution; ATCC 700603, ESBL-producing): > 64 µg/mL

CN[C@H](CC(C)C)C(=O)N[C@H]1C(=O)N[C@@H](CC(N)=O)C(=O)N[C@H]2C(=O)N[C@H]3C(=O)N[C@H](C(=O)N[C@H](C(=O)O)c4cc(O)cc(O)c4-c4cc3ccc4O)[C@H](O)c3ccc(c(Cl)c3)Oc3cc2cc(c3O[C@@H]2O[C@H](CO)[C@@H](O)[C@H](O)[C@H]2O[C@H]2C[C@](C)(NCc3ccc(OCc4cn(CC(=O)N[C@H](C(=O)N[C@@H](CCN)C(=O)N[C@H]5CCNC(=O)[C@H]([C@@H](C)O)NC(=O)[C@H](CCN)NC(=O)[C@H](CCN)NC(=O)[C@H](CC(C)C)NC(=O)[C@@H](CC(C)C)NC(=O)[C@H](CCN)NC5=O)[C@@H](C)O)nn4)c(OC)c3)[C@H](O)[C@H](C)O2)Oc2ccc(cc2Cl)[C@H]1O
MIC (broth microdilution; ATCC 27736, cation-adjusted Mueller-Hinton broth; 18 to 20 h, 37 °C, 0.002% polysorbate 80): 8 µg/mL

CCCCCCC#Cc1cncc(-c2nnc(SCc3ccc(Cl)cc3)n2C)c1
MIC (microbial growth, broth dilution; DSM30104): > 64 µg/mL

CC(C)C[C@@H]1NC(=O)[C@@H](CC(C)C)NC(=O)[C@H](CCN)NC(=O)[C@@H](NC(=O)[C@H](CCN)NC(=O)[C@@H](NC(=O)CN=[N+]=[N-])[C@@H](C)O)CCNC(=O)[C@H]([C@@H](C)O)NC(=O)[C@H](CCN)NC(=O)[C@H](CCN)NC1=O
MIC (broth microdilution; ATCC 13883, cation-adjusted Mueller-Hinton broth; 18 to 20 h, 37 °C, 0.002% polysorbate 80): 32 µg/mL

CCCCCCn1cc[n+](CCCCCCCCCCOc2cc(OCCCCCCCCCC[n+]3ccn(CCCCCC)c3)cc(OCCCCCCCCCC[n+]3ccn(CCCCCC)c3)c2)c1.[Br-].[Br-].[Br-]
MIC (ATCC 4352): 16 µM

c1ccc(CN2CCOCCOCCN(CCCCCCCCN3CCOCCOCCN(CCCCCCCCN4CCOCCOCCN(Cc5ccccc5)CCOCCOCC4)CCOCCOCC3)CCOCCOCC2)cc1
MIC (ATCC BAA-2146): 200 µM

CCCCCCCCCCCC[N+](C)(C)CCCCCCOc1cc(OCCCCCC[N+](C)(C)CCCCCCCCCCCC)cc(OCCCCCC[N+](C)(C)CCCCCCCCCCCC)c1.[Br-].[Br-].[Br-]
MIC (ATCC 4352): 16 µM

CC[C@H]1OC(=O)[C@H](C)[C@@H](OC(=O)Cc2ccc(C(F)(F)F)cc2)[C@H](C)[C@@H](O[C@@H]2O[C@H](C)C[C@H](N(C)C)[C@H]2O)[C@](C)(OC)C[C@@H](C)C(=O)[C@H](C)[C@@H](O)[C@]1(C)O
MIC (microbial growth; ATCC700603): > 32 µg/mL

CCCCCCCC[N+](C)(C)CCCCCCCCOc1cc(OCCCCCCCC[N+](C)(C)CCCCCCCC)cc(OCCCCCCCC[N+](C)(C)CCCCCCCC)c1.[Br-].[Br-].[Br-]
MIC (ATCC 4352): 2 µM

CC1(C)[C@H](NC(=O)/C(=N\OC2(C(=O)O)CC2)c2nsc(N)n2)C(=O)N1OS(=O)(=O)O
MIC (agar dilution; 16-14, ESBL-producing): 4 µg/mL

CCCCCCCC[N+](C)(C)CCCCCCOc1cc(OCCCCCC[N+](C)(C)CCCCCCCC)cc(OCCCCCC[N+](C)(C)CCCCCCCC)c1.[Br-].[Br-].[Br-]
MIC (ATCC 4352): 1 µM

CC1(C)[C@H](NC(=O)/C(=N\OC2(C(=O)O)CCCC2)c2csc(N)n2)C(=O)N1OS(=O)(=O)O
MIC (agar dilution; ATCC 700603, ESBL-producing): 1 µg/mL

CCCCCC[N+](C)(C)CCCCCCCCCCOc1cc(OCCCCCCCCCC[N+](C)(C)CCCCCC)cc(OCCCCCCCCCC[N+](C)(C)CCCCCC)c1.[Br-].[Br-].[Br-]
MIC (ATCC 4352): 4 µM

C#CCNC(=O)C(C)(C)O/N=C(\C(=O)N[C@@H]1C(=O)N(S(=O)(=O)O)[C@H]1C)c1csc(N)n1
MIC (agar dilution; ATCC 700603 ESBL): 128 µg/mL

CC[C@H](C)[C@H](NC(=O)[C@@H](CCCNC(=N)N)NC(=O)[C@H](CCCNC(=N)N)NC(=O)[C@@H]1CCCN1C(=O)[C@@H]1CCCN1C(=O)[C@H](CCCNC(=N)N)NC(=O)[C@@H]1CCCN1C(=O)[C@H](CCCNC(=N)N)NC(=O)[C@@H]1CCCN1C(=O)[C@H](CCCNC(=N)N)NC(=O)[C@H](Cc1ccc(O)cc1)NC(=O)[C@@H]1CCCN1C(=O)[C@@H]1CCCN1C(=O)[C@H](CCCCN)NC(=O)[C@H](CC(=O)O)NC(=O)[C@@H](N)C(C)C)C(=O)N[C@@H](Cc1ccc(O)cc1)C(=O)N[C@@H](CC(N)=O)C(=O)N[C@H](CCCNC(=N)N)C(N)=O
MIC (broth microdilution; DSM 681; 18 h, 37 °C, 25% MHB2): 4 µg/mL

COc1nc(C(=O)Nc2ccc(C(=O)O)c(O)c2OC)ccc1NC(=O)c1ccc(NC(=O)[C@H](Cc2c[nH]nn2)NC(=O)c2ccc(NC(=O)/C(C)=C/c3ccc(O)cc3)cc2)cc1
MIC (broth microdilution; ciprofloxacin-sensitive): 64 µg/mL
